Experimental data from different studies.
Parts stem from different laboratories: compare values within a part only.
Sequence of UniProt P46098 (whole entry, looked up): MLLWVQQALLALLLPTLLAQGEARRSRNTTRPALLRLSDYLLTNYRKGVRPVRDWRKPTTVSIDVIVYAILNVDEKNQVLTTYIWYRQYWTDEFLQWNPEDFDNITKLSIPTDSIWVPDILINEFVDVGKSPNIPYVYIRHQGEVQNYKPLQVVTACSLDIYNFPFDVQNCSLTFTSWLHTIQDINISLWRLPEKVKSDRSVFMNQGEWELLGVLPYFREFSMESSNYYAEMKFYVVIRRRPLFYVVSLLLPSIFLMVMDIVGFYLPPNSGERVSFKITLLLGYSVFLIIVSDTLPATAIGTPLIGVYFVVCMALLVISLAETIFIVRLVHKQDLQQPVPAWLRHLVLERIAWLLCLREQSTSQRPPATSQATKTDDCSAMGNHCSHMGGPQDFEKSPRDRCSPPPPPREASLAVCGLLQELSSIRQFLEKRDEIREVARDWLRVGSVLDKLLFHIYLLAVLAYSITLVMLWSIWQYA
Sequence of UniProt P14416 (whole entry, looked up): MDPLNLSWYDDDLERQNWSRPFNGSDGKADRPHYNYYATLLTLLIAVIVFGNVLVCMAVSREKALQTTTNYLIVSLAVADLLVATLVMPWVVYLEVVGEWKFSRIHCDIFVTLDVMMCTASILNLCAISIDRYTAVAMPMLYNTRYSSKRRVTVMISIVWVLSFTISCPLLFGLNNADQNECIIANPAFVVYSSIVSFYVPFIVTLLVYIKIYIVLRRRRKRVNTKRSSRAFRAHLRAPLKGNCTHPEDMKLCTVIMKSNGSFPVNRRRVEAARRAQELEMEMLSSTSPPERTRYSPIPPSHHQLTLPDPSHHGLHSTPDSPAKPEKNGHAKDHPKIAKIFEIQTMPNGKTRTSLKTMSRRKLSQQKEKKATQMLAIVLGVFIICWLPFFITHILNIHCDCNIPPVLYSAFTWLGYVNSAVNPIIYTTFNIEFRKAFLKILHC

Study 1
Compound: CC(=O)N[C@@H](Cc1c[nH]c2ccccc12)C(=O)N[C@@H](CCC(=O)C=[N+]=[N-])C(=O)OC(C)C
Host: mouse, EL4 tumour-bearing
Matrix: EL4 tumour
Dose: dose not given
Baseline: vehicle
assay | log2 fold change
item: 3-sulfo-L-alanine | 0.51
item: 1-ribosyl-imidazoleacetate* | 0.297
item: N6-acetyllysine | 0.13
item: dehydroascorbate | 1.14
item: 3-amino-2-piperidone | 0.00166

Study 2
SMILES: CC(C)n1cnc(-c2ccc(F)cc2)c1-c1ncc(C(=O)Nc2ccc(N3CCN(C)CC3)cc2)[nH]1
Method: phase 2a trial
Host: idiopathic pulmonary fibrosis patients
setting | patients with ALT increased
30 mg once daily, adverse event grade 5 | 0%
60 mg once daily, adverse event grade 3 | 0%
30 mg once daily, adverse event grade 2 | 0%
60 mg once daily, adverse event grade 4 | 0%
60 mg once daily, adverse event grade 1 | 4%
60 mg once daily, adverse event grade 5 | 0%

Study 3
Host: human
Matrix: microsomes or S9
Concentration: 2 µM
Time: 0.5 h
SMILES | remaining compound [%]
CN(C)S(=O)(=O)c1cc(C(=O)NCC(c2ccccc2)N2CCOCC2)c(Cl)cc1Cl (stereo not shown) | 1.22
CCS(=O)(=O)Nc1ccc(-n2nc(C)c(-c3ccc(Cl)cc3)cc2=O)cc1 | 54.6
Cc1cc(C)n(-c2ccc(C(=O)NCc3ccc(C)o3)cn2)n1 | 68.1
Cc1cc(C)n2c(CN3CCN(C)C[C@@H]3C(C)C)cnc2n1 | 98.3
COCc1nc(CCNS(=O)(=O)c2cccc(OC)c2)no1 | 0
CCc1c[nH]c2ncnc(NCC(Cc3ccccc3)c3ccccn3)c12 (stereo not shown) | 0.114

Other studies, line by line
Concentration: 10 µM
SMILES | target | assay | inhibition
CN1C(=O)[C@@H](N2CCc3c(nn(Cc4ccccc4)c3Br)C2=O)COc2ccccc21 | D(2) dopamine receptor (DRD2, Homo sapiens, UniProt P14416) | cell-free assay | -5.95%
CCOCCn1cc(C(=O)Nc2ccc(-n3nc(-c4cccnc4)cc3C(F)(F)F)cn2)ccc1=O | 5-hydroxytryptamine receptor 3A (HTR3A, Homo sapiens, UniProt P46098) | binding, radioligand binding | 2.27%

Excerpt of the above (study 2):
setting | patients with ALT increased
60 mg once daily, adverse event grade 5 | 0%
30 mg once daily, adverse event grade 2 | 0%
